{"data": "Experimental data pooled from the literature", "note": "Parts stem from different laboratories: compare values within a part only. Substitutions count along the parent as printed."}
{"data": "Set 1", "target": "CCND3, cyclin fold, Cln2 fusion (human)", "method": "yeast growth competition, sequencing", "matrix": "yeast", "setting": "weak parent motif", "relative to": "not given", "reading": "higher = stronger binding", "parent": "PKN2 docking peptide (human); VSAVQKLDFSDTM"}
{"Substitution": "M13Q", "normalised enrichment score": 0.0572}
{"Substitution": "M13V", "normalised enrichment score": 0.122}
{"Substitution": "V1K", "normalised enrichment score": 0.139}
{"Substitution": "S2H", "normalised enrichment score": 0.072}
{"Substitution": "V1N", "normalised enrichment score": 0.146}
{"Substitution": "D8N", "normalised enrichment score": 0.136}
{"Substitution": "D8E", "normalised enrichment score": 0.0891}
{"Substitution": "V1G", "normalised enrichment score": 0.103}
{"data": "Set 2", "target": "Histone acetyltransferase KAT6A, both winged helices, GST fusion (KAT6A, Homo sapiens, UniProt Q92794, residues 1-181)", "method": "protein binding microarray", "form": "double-stranded DNA, one strand shown", "matrix": "in vitro", "tested at": "not given", "setting": "8-mer, flanks averaged, mean of 2 arrays, mostly near background", "relative to": "not given", "reading": "higher = stronger binding", "Residues (chain)": "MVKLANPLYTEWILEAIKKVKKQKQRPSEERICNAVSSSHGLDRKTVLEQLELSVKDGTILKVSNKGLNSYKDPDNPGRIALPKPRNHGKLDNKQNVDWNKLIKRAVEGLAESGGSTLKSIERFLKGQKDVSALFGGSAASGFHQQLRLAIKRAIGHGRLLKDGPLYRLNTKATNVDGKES"}
{"Sequence": "AGAATATG", "E-score": -0.0872}
{"Sequence": "ATACAGTG", "E-score": -0.164}
{"Sequence": "CGCGTGCC", "E-score": 0.237}
{"Sequence": "CGACCCGC", "E-score": 0.247}
{"Sequence": "CACTGAGG", "E-score": -0.0714}
{"Sequence": "CATCAACA", "E-score": 0.0978}
{"Sequence": "CGGTGACC", "E-score": 0.0632}
{"Sequence": "CCGCTCAG", "E-score": 0.23}
{"data": "Other studies, line by line"}
{"Substance": "PhoQ, residues 284 288 289 292 302 303 SVHLDV", "target": "PhoP, residues 12 14 15 18 19 GQALL (Escherichia coli, UniProt P23836)", "test": "Sort-seq, item: YFP reporter", "system": "E. coli", "conditions": "PhoQ-PhoP variant library, with: 10 µM Mg2+", "scale": "relative to: high Mg2+ state, higher = stronger signaling", "quantity": "fold induction", "result": 8.79}
{"Substance": "CS(=O)(=O)CCNCc1ccc(-c2ccc3ncnc(Nc4ccc(OCc5cccc(F)c5)c(Cl)c4)c3c2)o1", "target": "Receptor-type tyrosine-protein kinase FLT3 (FLT3, Homo sapiens, UniProt P36888)", "test": "enzyme activity, inhibitor", "conditions": "0.5 µM", "scale": "relative to: control", "quantity": "remaining activity", "result": "92.6%"}
